Measured values pooled from the literature.
A part holds a random share of what one study measured.
Sequence of UniProt P41595 (whole entry, looked up): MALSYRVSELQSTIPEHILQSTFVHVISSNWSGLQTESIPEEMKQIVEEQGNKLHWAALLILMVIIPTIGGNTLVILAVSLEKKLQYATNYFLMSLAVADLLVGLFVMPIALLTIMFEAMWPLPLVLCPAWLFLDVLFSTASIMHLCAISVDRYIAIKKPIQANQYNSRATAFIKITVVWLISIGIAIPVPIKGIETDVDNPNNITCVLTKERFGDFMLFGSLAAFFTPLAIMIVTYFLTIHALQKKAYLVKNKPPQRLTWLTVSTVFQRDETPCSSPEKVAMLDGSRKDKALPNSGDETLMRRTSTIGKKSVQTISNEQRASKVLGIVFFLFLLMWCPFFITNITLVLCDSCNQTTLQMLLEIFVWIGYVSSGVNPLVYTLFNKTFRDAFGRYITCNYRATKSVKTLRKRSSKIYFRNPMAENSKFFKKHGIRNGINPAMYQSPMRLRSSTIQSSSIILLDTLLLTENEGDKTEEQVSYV
Sequence of UniProt P47898 (whole entry, looked up): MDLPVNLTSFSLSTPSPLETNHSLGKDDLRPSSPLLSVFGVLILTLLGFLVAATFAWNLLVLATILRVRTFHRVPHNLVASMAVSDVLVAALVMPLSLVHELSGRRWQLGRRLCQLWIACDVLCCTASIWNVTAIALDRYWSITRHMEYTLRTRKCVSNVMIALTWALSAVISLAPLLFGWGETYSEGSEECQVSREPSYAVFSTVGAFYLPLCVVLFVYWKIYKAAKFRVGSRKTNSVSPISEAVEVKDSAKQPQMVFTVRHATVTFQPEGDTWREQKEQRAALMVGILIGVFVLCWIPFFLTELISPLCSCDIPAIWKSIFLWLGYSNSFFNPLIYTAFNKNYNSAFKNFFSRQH

Sample 1 — target: panel of 300 human kinases; concentration: 0.5 µM; reading: higher = more selective
For `CNC(=O)c1cc(Oc2ccc(NC(=O)Nc3ccc(Cl)c(C(F)(F)F)c3)cc2)ccn1`, the Gini score was 0.79.
`CO[C@H]1C[C@@H]2CC[C@@H](C)[C@@](O)(O2)C(=O)C(=O)N2CCCC[C@H]2C(=O)O[C@H]([C@H](C)C[C@@H]2CC[C@@H](O)[C@H](OC)C2)CC(=O)[C@H](C)/C=C(\C)[C@@H](O)[C@@H](OC)C(=O)[C@H](C)C[C@H](C)/C=C/C=C/C=C/1C` gave a Gini score of 0.72.
`Nc1nc(Nc2ccc(S(N)(=O)=O)cc2)nn1C(=S)Nc1c(F)cccc1F` gave a Gini score of 0.37.
`O=C1NC(=O)/C(=C/c2ccc3c(c2)OC(F)(F)O3)S1` gave a Gini score of 0.63.
For `Nc1ccc2ncnc(NCCc3ccc(Oc4ccccc4)cc3)c2c1`, the Gini score was 0.73.
`O=C1c2ccccc2-c2nc3nnnn3nc21` has a Gini score of 0.54.
With `O=c1c(-c2ccc(F)cc2)c(-c2ccncc2)[nH]n1-c1ccc(Cl)cc1` the Gini score was 0.62.
`Cc1ccc(NC(=O)c2ccc(CN3CCN(C)CC3)cc2)cc1Nc1nc(-c2cccnc2)cs1` has a Gini score of 0.81.
The Gini score of `O=C(O)c1ccc2c3c1cccc3c(=O)n1c3ccccc3nc21` is reported as 0.72.
With `O=C1NC(=O)C(c2cn(CCCn3ccnc3)c3ccccc23)=C1Nc1ccccc1` the Gini score was 0.69.
`O=c1cc(N2CCNCC2)oc2c(-c3ccccc3)cccc12` gave a Gini score of 0.69.

Sample 2 — observed: kinase activity; action: inhibitor; technique: ADP-Glo; time: 1 h
Compound: CC(C)(C)c1nc(-c2cccc(NS(=O)(=O)c3c(F)cccc3F)c2F)c(-c2ccnc(N)n2)s1
Target: Receptor-interacting serine/threonine-protein kinase 3 (RIPK3, Homo sapiens, UniProt Q9Y572)
Sequence of UniProt Q9Y572 (whole entry, looked up): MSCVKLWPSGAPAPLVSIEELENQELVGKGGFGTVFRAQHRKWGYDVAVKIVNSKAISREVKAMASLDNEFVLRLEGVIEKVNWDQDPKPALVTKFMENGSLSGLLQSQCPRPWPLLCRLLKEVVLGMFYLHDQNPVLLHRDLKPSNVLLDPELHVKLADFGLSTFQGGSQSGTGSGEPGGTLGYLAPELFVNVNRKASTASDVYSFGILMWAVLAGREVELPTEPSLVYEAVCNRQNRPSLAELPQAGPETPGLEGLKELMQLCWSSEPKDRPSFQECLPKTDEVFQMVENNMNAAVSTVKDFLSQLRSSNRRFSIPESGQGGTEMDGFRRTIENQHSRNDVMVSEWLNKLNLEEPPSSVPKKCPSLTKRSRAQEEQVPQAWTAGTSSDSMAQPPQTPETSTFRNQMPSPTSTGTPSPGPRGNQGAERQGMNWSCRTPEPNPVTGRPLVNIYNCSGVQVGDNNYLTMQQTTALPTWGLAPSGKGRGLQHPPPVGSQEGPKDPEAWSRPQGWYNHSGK
It gave 44.9% for inhibition (7.813 nM).
For 15.62 nM: inhibition read 59.7%.
250 nM — inhibition: 96.3%.
The inhibition was 37.4% (3.906 nM).
For 1.953 nM: inhibition read 32.8%.

Sample 3 — organism: Sarcocystis neurona; observed: parasite growth; concentration: 10 µM; time: 96 h; reference: untreated
For `CO[C@H]1/C=C/O[C@@]2(C)Oc3c(C)c(O)c4c(O)c(c5c(nc6cc(C)ccn65)c4c3C2=O)NC(=O)/C(C)=C\C=C\[C@H](C)[C@H](O)[C@@H](C)[C@@H](O)[C@@H](C)[C@H](OC(C)=O)[C@@H]1C`, “log2 fold change” read 0.29.
`Cc1ncc([N+](=O)[O-])n1CC(C)O` (centres unmarked) — result for “log2 fold change”: 0.26.
Under “log2 fold change”, `CCCOc1ccc(C(=O)OCCN(CC)CC)cc1N` is recorded as 0.35.
For `CCCN1CCCC[C@H]1C(=O)Nc1c(C)cccc1C`, “log2 fold change” read 0.24.
For `CC(C)(C)NC(=O)[C@@H]1C[C@@H]2CCCC[C@@H]2CN1C[C@@H](O)[C@H](Cc1ccccc1)NC(=O)[C@H](CC(N)=O)NC(=O)c1ccc2ccccc2n1`, “log2 fold change” read -0.33.
`CC1(C)S[C@@H]2[C@H](/N=C/N3CCCCCC3)C(=O)N2[C@H]1C(=O)O` — result for “log2 fold change”: 0.26.
For `CC(=O)O[C@]1(C(C)=O)CC[C@H]2[C@@H]3C[C@H](C)C4=CC(=O)CC[C@]4(C)[C@H]3CC[C@@]21C`, “log2 fold change” read 0.33.
For `COc1cc(C)c(/C=C/C(C)=C/C=C/C(C)=C/C(=O)O)c(C)c1C`, “log2 fold change” read 0.73.

Single results of other studies — concentration: 10 µM
`C[C@H](c1ccnc(Nc2nc3ccc(-c4cc(N(C)C)ncn4)cc3[nH]2)c1)N1CCN(C(=O)CC(F)(F)F)CC1` gave an inhibition of 11.9% (HTR5A (Homo sapiens, UniProt P47898); ligand displacement).
`COCCc1ccc(-c2c(C)nc3c(N4CCOCC4)ccnn23)cn1` gave an inhibition of 52.2% (HTR2B (Homo sapiens, UniProt P41595); binding, radioligand binding).

Repeated from above (sample 1):
`Nc1nc(Nc2ccc(S(N)(=O)=O)cc2)nn1C(=S)Nc1c(F)cccc1F` gave a Gini score of 0.37.
`O=C1NC(=O)/C(=C/c2ccc3c(c2)OC(F)(F)O3)S1` gave a Gini score of 0.63.
For `Nc1ccc2ncnc(NCCc3ccc(Oc4ccccc4)cc3)c2c1`, the Gini score was 0.73.
`O=C1c2ccccc2-c2nc3nnnn3nc21` has a Gini score of 0.54.
